Assay results gathered from unrelated publications.
A part holds a random share of what one study measured.

Series 1
Target: Ras GTPase-activating protein-binding protein 1, C-terminal RGG region (G3BP1, Homo sapiens, UniProt Q13283)
Sequence of UniProt Q13283 (whole entry, looked up): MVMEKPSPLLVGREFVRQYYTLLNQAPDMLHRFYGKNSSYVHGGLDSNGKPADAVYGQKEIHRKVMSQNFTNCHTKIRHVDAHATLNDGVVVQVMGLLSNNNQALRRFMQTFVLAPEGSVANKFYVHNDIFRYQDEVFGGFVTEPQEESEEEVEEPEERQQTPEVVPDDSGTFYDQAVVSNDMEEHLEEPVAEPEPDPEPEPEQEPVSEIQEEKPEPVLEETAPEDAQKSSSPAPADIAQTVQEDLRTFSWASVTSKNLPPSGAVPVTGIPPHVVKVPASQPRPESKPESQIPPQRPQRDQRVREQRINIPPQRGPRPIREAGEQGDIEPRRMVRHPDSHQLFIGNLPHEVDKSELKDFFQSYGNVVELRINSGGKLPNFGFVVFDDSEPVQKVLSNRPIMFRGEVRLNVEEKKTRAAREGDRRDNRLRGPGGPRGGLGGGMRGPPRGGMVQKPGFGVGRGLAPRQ
Technique: RNA Bind-n-Seq
Molecule type: RNA
Sample: in vitro
Tested at: 1 µM
Setting: whole 134-nt RNA, ends assumed
With: 150 mM KCl
Relative to: input library
Reading: higher = stronger binding
Oligonucleotide | log2 enrichment
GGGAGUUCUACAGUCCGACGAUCAGUCCUGUGCUACACAUCGUAUGUACCGAAUCGGGUUUGGGAAAGGGAAAAAAAGGGAAAGUAUUAUGUUACGCCGUUCGGAUCUGCACUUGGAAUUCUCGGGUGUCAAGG | 0.42
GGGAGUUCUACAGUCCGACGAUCUGGGAGGUGGAUUUUGUUUAUUUCUUUAGCUCAUUUCCAGGGGUGGGAAUUUUUUUUUAAUAUGUGUCAUGAAUAAAGUUGUUUUUGAAAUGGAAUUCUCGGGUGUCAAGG | 3.19
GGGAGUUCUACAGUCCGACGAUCCUGUGCUACACAUCGUAUGUACCGAAUCGGGCCCCCCGGGGCCCCCCGGGGCCCCCCGGGGAAAGUAUUAUGUUACGCCGUUCGGAUCUGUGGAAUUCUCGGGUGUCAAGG | -2.5
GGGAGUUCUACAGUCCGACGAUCUAACUUUAGAGGAGGAUCUGAUGGAUAUGGCAGUGGACGUGGAUUUGGGGAUGGCUAUAAUGGGUAUGGAGGAGGCCCUGGAGGUGGCAAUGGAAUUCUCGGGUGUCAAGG | -0.226
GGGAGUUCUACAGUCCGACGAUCAAGUCCUGUGCUACACAUCGUAUGUACCGAAUCGGGAAAAAAAGGGAAAGGGAGGGAAAGUAUUAUGUUACGCCGUUCGGAUCUGCACUUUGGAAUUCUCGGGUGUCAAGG | 1.28
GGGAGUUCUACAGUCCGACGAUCUCCUGUGCUACACAUCGUAUGUACCGAAUCGGGUUUUUGGGAAAAAAAGGGUUUUUGGGAAAGUAUUAUGUUACGCCGUUCGGAUCUGCAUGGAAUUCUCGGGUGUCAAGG | -0.714
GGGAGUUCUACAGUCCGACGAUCGGCAGUAGCAGCAGCGCCGGGUCCCGUGCGGAGGUGCUCCUCGCAGAGUUGUUUCUCGAGCAGCGGCAGUUCUCACUACAGCGCCAGGACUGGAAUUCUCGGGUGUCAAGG | -1.24
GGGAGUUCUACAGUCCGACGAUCUCAAGUCCUGUGCUACACAUCGUAUGUACCGAAUCGGAGGUUUUUGGUUUUUGGAAAGUAUUAUGUUACGCCGUUCGGAUCUGCACUUCCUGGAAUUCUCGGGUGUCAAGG | -1.3

Series 2
Target: Prothrombin, mature alpha-thrombin (F2, Homo sapiens, UniProt P00734)
Technique: aptamer microarray, sandwich
Molecule type: DNA with 2'F-ANA
Sample: in vitro
Tested at: 200 nM
Setting: whole 15-mer aptamer, many near background
With: Cy3 exosite-II aptamer, 400 nM
Reading: higher = stronger binding
Oligonucleotide: GGTTGGTGTGGTTGG
Modification | mean fluorescence intensity
2'F-ANA at 1 2 3 4 6 7 8 9 10 11 13 | 57.8 a.u.
2'F-ANA at 2 4 6 8 11 13 15 | 194 a.u.
2'F-ANA at 1 2 3 4 8 11 13 15 | 138 a.u.
2'F-ANA at 1 2 6 9 10 11 12 13 15 | 60.7 a.u.
2'F-ANA at 1 5 8 9 11 12 | 97.6 a.u.
2'F-ANA at 1 3 4 6 8 9 12 14 | 72.8 a.u.
2'F-ANA at 1 2 8 9 10 | 138 a.u.
2'F-ANA at 2 3 5 7 8 10 11 13 15 | 53.7 a.u.
2'F-ANA at 2 4 5 7 8 9 10 12 13 15 | 47.4 a.u.
2'F-ANA at 1 2 8 10 11 12 14 | 60.6 a.u.
2'F-ANA at 1 4 5 8 9 10 13 14 15 | 47.3 a.u.
2'F-ANA at 1 4 5 7 8 11 13 | 64.2 a.u.
2'F-ANA at 1 4 5 6 7 8 9 11 13 | 62.9 a.u.
2'F-ANA at 3 7 10 11 12 15 | 637 a.u.
2'F-ANA at 1 2 3 4 5 10 12 14 | 132 a.u.
2'F-ANA at 5 6 11 14 | 41.7 a.u.

Series 3
Target: Transcriptional repressor CTCF (CTCF, Homo sapiens, UniProt P49711, residues 1-727, full length assumed)
Technique: protein-binding microarray
Molecule type: double-stranded DNA, one strand shown
Sample: in vitro
Tested at: not given
Setting: k-mer, scored over probes, only values ≥0.25
Reading: higher = stronger binding
Construct (chain): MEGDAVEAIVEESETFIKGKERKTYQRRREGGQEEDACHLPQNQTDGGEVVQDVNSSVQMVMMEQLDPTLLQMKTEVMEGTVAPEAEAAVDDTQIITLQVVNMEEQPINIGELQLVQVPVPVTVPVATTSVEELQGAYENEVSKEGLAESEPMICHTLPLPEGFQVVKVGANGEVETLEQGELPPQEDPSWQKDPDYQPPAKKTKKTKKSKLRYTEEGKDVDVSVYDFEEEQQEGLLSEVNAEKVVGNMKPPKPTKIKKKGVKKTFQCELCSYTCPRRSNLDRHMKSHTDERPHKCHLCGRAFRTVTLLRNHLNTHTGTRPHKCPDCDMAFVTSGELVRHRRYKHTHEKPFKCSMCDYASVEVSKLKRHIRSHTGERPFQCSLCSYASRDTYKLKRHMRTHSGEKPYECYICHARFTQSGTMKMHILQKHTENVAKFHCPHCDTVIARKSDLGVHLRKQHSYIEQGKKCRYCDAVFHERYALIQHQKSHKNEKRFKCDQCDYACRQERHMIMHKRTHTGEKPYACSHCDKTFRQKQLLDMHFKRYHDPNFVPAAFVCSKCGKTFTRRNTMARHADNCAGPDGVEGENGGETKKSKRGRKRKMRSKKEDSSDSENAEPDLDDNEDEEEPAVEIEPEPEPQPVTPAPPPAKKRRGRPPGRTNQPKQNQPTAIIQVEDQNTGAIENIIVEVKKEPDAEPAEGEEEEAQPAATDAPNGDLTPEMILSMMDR
Oligonucleotide | E-score
GCGCGCGC | 0.421
GCTTATAA | 0.262
ATTGCATG | 0.259
ATAATTTA | 0.427
AATATTTG | 0.263

Series 4
Target: Histone acetyltransferase KAT6A, winged helix 1, GST fusion (KAT6A, Homo sapiens, UniProt Q92794, residues 1-85)
Technique: protein binding microarray
Molecule type: double-stranded DNA, one strand shown
Sample: in vitro
Tested at: not given
Setting: 8-mer, flanks averaged, mean of 2 arrays, mostly near background
Relative to: not given
Reading: higher = stronger binding
Target sequence (chain): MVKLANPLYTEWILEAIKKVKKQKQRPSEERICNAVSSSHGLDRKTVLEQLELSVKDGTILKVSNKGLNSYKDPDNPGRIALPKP
Oligonucleotide | E-score
AATCCAGC | -0.108
GATAGCTA | -0.175
AAGTTAGA | -0.145
CATCGGCG | 0.344
AGTGATAC | -0.0367
ATGCTTTC | -0.0753
AGAAAACC | -0.0698
TATGGAGA | -0.141
AGCGGCAG | 0.368
TAACCCTA | -0.169
CTCAAATA | -0.00184
GCTGTCCA | -0.0503

Other studies, line by line
Substance | target | test | system | conditions | scale | endpoint | value
PhoQ, residues 284 288 289 292 302 303 SCCLKL | PhoP, residues 12 14 15 18 19 NQFFI (Escherichia coli, UniProt P23836) | Sort-seq, refers to: YFP reporter | E. coli | PhoQ-PhoP variant library, with: 10 µM Mg2+ | relative to: high Mg2+ state, higher = stronger signaling | fold induction | 13

Excerpt of the above (series 1):
Oligonucleotide | log2 enrichment
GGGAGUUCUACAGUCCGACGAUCUCCUGUGCUACACAUCGUAUGUACCGAAUCGGGUUUUUGGGAAAAAAAGGGUUUUUGGGAAAGUAUUAUGUUACGCCGUUCGGAUCUGCAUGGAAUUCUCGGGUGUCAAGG | -0.714
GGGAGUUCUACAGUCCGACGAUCAAGUCCUGUGCUACACAUCGUAUGUACCGAAUCGGGAAAAAAAGGGAAAGGGAGGGAAAGUAUUAUGUUACGCCGUUCGGAUCUGCACUUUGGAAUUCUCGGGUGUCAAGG | 1.28
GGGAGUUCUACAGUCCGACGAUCUCAAGUCCUGUGCUACACAUCGUAUGUACCGAAUCGGAGGUUUUUGGUUUUUGGAAAGUAUUAUGUUACGCCGUUCGGAUCUGCACUUCCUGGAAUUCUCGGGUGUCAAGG | -1.3
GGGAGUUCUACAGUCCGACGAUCGGCAGUAGCAGCAGCGCCGGGUCCCGUGCGGAGGUGCUCCUCGCAGAGUUGUUUCUCGAGCAGCGGCAGUUCUCACUACAGCGCCAGGACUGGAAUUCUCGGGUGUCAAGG | -1.24
